{"data": "Published values gathered from unrelated publications", "organism": "Staphylococcus aureus", "note": "Lines come from different studies, so protocols differ."}
{"SMILES": "Oc1c(Br)cc(Br)c2nc3cc(Cl)ccc3nc12", "assay": "broth microdilution", "test system": "MRSA 44", "conditions": "16 h, 37 °C", "MIC": "0.1 µM"}
{"SMILES": "CC[C@H](C)[C@H](N)C(=O)N[C@@H](CCCNC(=N)N)C(=O)N[C@H](C(=O)N[C@@H](Cc1c[nH]c2ccccc12)C(=O)N[C@@H](CCCCN)C(=O)N[C@@H](CCCCN)C(=O)N[C@H](C(=O)N[C@H](C(=O)N[C@@H](CCCNC(=N)N)C(=O)N[C@@H](CCCCN)C(=O)N[C@@H](CCSC)C(=O)N[C@@H](CCCCN)C(=O)N[C@@H](C)C(=O)N[C@H](C(=O)N[C@@H](Cc1ccc(O)cc1)C(=O)N[C@@H](Cc1c[nH]cn1)C(N)=O)[C@@H](C)CC)C(C)C)[C@@H](C)CC)C(C)C", "assay": "broth dilution", "test system": "ATCC 25923, Mueller-Hinton broth", "conditions": "24 h, 37 °C", "MIC": "100 µM"}
{"SMILES": "C#CCOc1ccc(CN[C@@]2(C)C[C@H](O[C@H]3[C@H](Oc4c5cc6cc4Oc4ccc(cc4Cl)[C@@H](O)[C@@H](NC(=O)[C@@H](CC(C)C)NC)C(=O)N[C@@H](CC(N)=O)C(=O)N[C@H]6C(=O)N[C@H]4C(=O)N[C@H](C(=O)N[C@H](C(=O)NCC(N)=O)c6cc(O)cc(O)c6-c6cc4ccc6O)[C@H](O)c4ccc(c(Cl)c4)O5)O[C@H](CO)[C@@H](O)[C@@H]3O)O[C@@H](C)[C@H]2O)cc1OC", "test system": "MSSA ATCC 29213", "MIC": "0.298 µM"}
{"SMILES": "CC[C@H](C)[C@H](NC(=O)CNC(=O)[C@@H](NC(=O)CNC(=O)[C@@H](NC(=O)CNC(=O)[C@@H](NC(=O)[C@@H](NC(=O)[C@H](CCC(N)=O)NC(=O)[C@H](CCC(=O)O)NC(=O)[C@@H](NC(=O)[C@H](CC(C)C)NC(=O)[C@H](CCCNC(=N)N)NC(=O)[C@H](Cc1ccccc1)NC(=O)[C@@H](NC(=O)[C@H](CC(N)=O)NC(=O)[C@H](CCCCN)NC(=O)CNC(=O)[C@H](CCSC)NC(=O)[C@H](CCCCN)NC(=O)CNC(=O)[C@H](CC(C)C)NC(=O)[C@H](CCCCN)NC(=O)[C@H](CCCCN)NC(=O)CNC(=O)[C@H](Cc1ccccc1)NC(=O)[C@H](CCCCN)NC(=O)[C@H](CCCCN)NC(=O)[C@H](CC(C)C)NC(=O)[C@H](Cc1c[nH]c2ccccc12)NC(=O)CN)C(C)C)C(C)C)C(C)C)C(C)C)C(C)C)C(C)C)C(=O)N[C@@H](CC(N)=O)C(=O)N[C@@H](C)C(=O)N[C@@H](CC(C)C)C(=O)N[C@@H](CO)C(=O)O", "assay": "broth microdilution", "test system": "ATCC 25923, Mueller-Hinton broth", "conditions": "16 to 20 h, 37 °C", "MIC": "2.2 µg/mL"}
{"SMILES": "CC(C)C[C@H]1NC(=O)[C@H](Cc2c[nH]c3ccccc23)NC(=O)[C@@H](C(C)C)NC(=O)[C@@H]2CSC([C@H](C(C)C)NC(=O)[C@@H](C(C)C)NC(=O)[C@H](C(C)C)NC1=O)N2C", "test system": "NCTC 8325, Mueller Hinton broth", "conditions": "21 h, 37 °C", "MIC": "> 100 µg/mL"}
{"SMILES": "CC[C@H](C)[C@H](NC(=O)[C@H](CCCNC(=N)N)NC(=O)[C@@H](NC(=O)[C@@H](NC(=O)[C@H](CCCNC(=N)N)NC(=O)[C@H](CCCCN)NC(=O)[C@H](Cc1ccccc1)NC(=O)[C@H](CCCNC(=N)N)NC(=O)[C@H](CCCCN)NC(=O)[C@@H](NC(=O)[C@@H](N)CCCCN)[C@@H](C)CC)[C@@H](C)CC)C(C)C)C(=O)N[C@@H](CCCCN)C(=O)N[C@@H](Cc1ccccc1)C(=O)N[C@@H](CC(C)C)C(=O)N[C@@H](CCCNC(=N)N)C(=O)N[C@H](C(=O)N[C@H](C(=O)N[C@@H](CCCNC(=N)N)C(=O)N[C@@H](CCCNC(=N)N)C(N)=O)C(C)C)C(C)C", "assay": "broth microdilution", "test system": "MRSA 109", "MIC": "3.75 µg/mL"}
{"SMILES": "CCCCCCCCCCCCCC(=O)N[C@H]1C(=O)N[C@@H](CN)C(=O)N[C@@H](CO)C(=O)N[C@@H](Cc2ccc(O)cc2)C(=O)O[C@H]1C", "test system": "SH1000", "conditions": "added: menaquinone-4, molar ratio 2", "MIC": "2 µg/mL"}
{"SMILES": "CC(C)CCCCCCCCC/C=C/C(=O)N[C@@H](CC(N)=O)C(=O)N[C@H]1CNC(=O)[C@@H]2CCCN2C(=O)[C@H](C(C)C)NC(=O)[C@@H](CN)NC(=O)CNC(=O)[C@H](CC(=O)O)NC(=O)CNC(=O)[C@H](CC(=O)O)NC(=O)[C@H](CC(=O)O)NC(=O)[C@H]2CCCCN2C1=O", "assay": "broth microdilution", "test system": "VISA LIM strain 2, Mueller-Hinton broth, Mg2+ 10 mg/L", "conditions": "16 h, added: Ca2+ 5 mM", "MIC": "2 µg/mL"}
{"SMILES": "CN[C@H](CC(C)C)C(=O)N[C@H]1C(=O)N[C@@H](CC(N)=O)C(=O)N[C@H]2C(=O)N[C@H]3C(=O)N[C@H](C(=O)N[C@H](C(=O)NCC(N)=O)c4cc(O)cc(O)c4-c4cc3ccc4O)[C@H](O)c3ccc(c(Cl)c3)Oc3cc2cc(c3O[C@@H]2O[C@H](CO)[C@@H](O)[C@H](O)[C@H]2O[C@H]2C[C@](C)(NCc3ccc(OCc4cn(CC(=O)N[C@H](C(=O)N[C@@H](CCN)C(=O)N[C@H]5CCNC(=O)[C@H]([C@@H](C)O)NC(=O)[C@H](CCN)NC(=O)[C@H](CCN)NC(=O)[C@H](CC(C)C)NC(=O)[C@@H](CC(C)C)NC(=O)[C@H](CCN)NC5=O)[C@@H](C)O)nn4)c(OC)c3)[C@H](O)[C@H](C)O2)Oc2ccc(cc2Cl)[C@H]1O", "test system": "VRSA 2 vanA", "MIC": "> 48 µM"}
{"SMILES": "CC[C@H](C)[C@H](NC(=O)[C@@H](CCCNC(=N)N)NC(=O)[C@H](CCCNC(=N)N)NC(=O)[C@@H]1CCCN1C(=O)[C@@H]1CCCN1C(=O)[C@H](CCCNC(=N)N)NC(=O)[C@@H]1CCCN1C(=O)[C@H](CCCNC(=N)N)NC(=O)[C@@H]1CCCN1C(=O)[C@H](CCSC)NC(=O)[C@H](Cc1ccc(O)cc1)NC(=O)[C@@H]1CCCN1C(=O)[C@@H]1CCCN1C(=O)[C@H](CCCCN)NC(=O)[C@H](CC(=O)O)NC(=O)[C@@H](N)C(C)C)C(=O)N[C@@H](Cc1ccc(O)cc1)C(=O)N[C@@H](CC(N)=O)C(=O)N[C@H](CCCNC(=N)N)C(N)=O", "assay": "broth microdilution", "test system": "DSM 6247", "conditions": "18 h, 37 °C, 25% MHB2", "MIC": "> 128 µg/mL"}
{"SMILES": "c1ccc(CCNC2CCCc3c2[nH]c2ccc(C4CCCCC4)cc32)cc1 (stereo not drawn)", "assay": "broth microdilution", "test system": "USA300 JE2 MRSA", "MIC": "2 µg/mL"}
{"SMILES": "C#CCOc1ccc(CN[C@@]2(C)C[C@H](O[C@H]3[C@H](Oc4c5cc6cc4Oc4ccc(cc4Cl)[C@@H](O)[C@@H](NC(=O)[C@@H](CC(C)C)NC)C(=O)N[C@@H](CC(N)=O)C(=O)N[C@H]6C(=O)N[C@H]4C(=O)N[C@H](C(=O)N[C@H](C(=O)N[C@@H](CCCNC(=N)N)C(N)=O)c6cc(O)cc(O)c6-c6cc4ccc6O)[C@H](O)c4ccc(c(Cl)c4)O5)O[C@H](CO)[C@@H](O)[C@@H]3O)O[C@@H](C)[C@H]2O)cc1OC", "assay": "broth microdilution", "test system": "VISA LIM-2, tryptic soy broth", "conditions": "20 to 24 h, 37 °C, 0.002% polysorbate 80", "MIC": "2 µg/mL"}
{"SMILES": "CC[C@H](C)[C@H](NC(=O)[C@@H](CCCNC(=N)N)NC(=O)[C@H](CCCNC(=N)N)NC(=O)[C@@H]1CCCN1C(=O)[C@@H]1CCCN1C(=O)[C@H](CCCNC(=N)N)NC(=O)[C@@H]1CCCN1C(=O)[C@H](CCCNC(=N)N)NC(=O)[C@@H]1CCCN1C(=O)[C@@H](NC(=O)[C@H](Cc1ccc(O)cc1)NC(=O)[C@@H]1CCCN1C(=O)[C@@H]1CCCN1C(=O)[C@H](CCCCN)NC(=O)[C@H](CC(=O)O)NC(=O)[C@@H](N)C(C)C)C(C)(C)C)C(=O)N[C@@H](Cc1ccc(O)cc1)C(=O)N[C@@H](CC(N)=O)C(=O)N[C@H](CCCNC(=N)N)C(N)=O", "assay": "broth microdilution", "test system": "DSM 6247", "conditions": "18 h, 37 °C, 25% MHB2", "MIC": "> 128 µg/mL"}
{"SMILES": "CCn1c(-c2ccc(-c3ccc(F)cc3)cc2)c(-c2ccc(-c3ccc(F)cc3)cc2)n(CC)c1=[Se]", "assay": "microbial growth, broth dilution", "test system": "ATCC700699 VISA", "conditions": "24 h, drug-resistant strain", "MIC": "> 40 µM"}
{"SMILES": "Cc1ccc2nc(C)c(C(=O)C(=O)NCc3ccc(N(C)C)cc3)n2c1", "assay": "microbial growth, broth dilution", "MIC": "> 128 µM"}
{"SMILES": "CCC(CC)c1cc(C2CN3CCC2CC3CNC)nc(-c2ccncc2)n1 (stereo not drawn)", "assay": "microbial growth, broth dilution", "test system": "ATCC29213", "MIC": "64 µg/mL"}
{"SMILES": "CC[C@H]1OC(=O)[C@H](C)[C@@H](OC(=O)Cc2c(F)cc([N+](=O)[O-])cc2F)[C@H](C)[C@@H](O[C@@H]2O[C@H](C)C[C@H](N(C)C)[C@H]2O)[C@](C)(OC)C[C@@H](C)C(=O)[C@H](C)[C@@H](O)[C@]1(C)O", "test system": "BAA-977", "MIC": "0.5 µg/mL"}
{"SMILES": "C#CCOc1ccc(CN[C@@]2(C)C[C@H](O[C@H]3[C@H](Oc4c5cc6cc4Oc4ccc(cc4Cl)[C@@H](O)[C@@H](NC(=O)[C@@H](CC(C)C)NC)C(=O)N[C@@H](CC(N)=O)C(=O)N[C@H]6C(=O)N[C@H]4C(=O)N[C@H](C(=O)N[C@H](C(=O)O)c6cc(O)cc(O)c6-c6cc4ccc6O)[C@H](O)c4ccc(c(Cl)c4)O5)O[C@H](CO)[C@@H](O)[C@@H]3O)O[C@@H](C)[C@H]2O)cc1OC", "test system": "LIM-2 VISA", "MIC": "10 µM"}
